Results gathered from unrelated publications.
Protocols differ between the studies behind these lines. ± marks the error that the study gave.
Cell line: HUVEC

SMILES | test | conditions | IC50 [µM]
COc1ccc(CS(=O)(=O)c2ccc3ccccc3c2)cc1NCC(=O)O | cell growth or viability, MTS | 48 h | 3.81
COc1ccc(CN2C(=O)C(=O)c3cc(NC(C)=O)ccc32)cc1 | cell growth or viability, MTT | 48 h | 8.22
COc1cc(/C=C/C(=O)NCCCCCCNC2=C3C[C@@H](C)C[C@H](OC)[C@H](O)[C@@H](C)/C=C(\C)[C@H](OC(N)=O)[C@@H](OC)/C=C\C=C(/C)C(=O)NC(=CC2=O)C3=O)ccc1O | cell growth or viability, MTT | 72 h | 1.58
COc1cc(OC)c(-c2coc3c4c(c(OC)cc3c2=O)OC(C)(C)C=C4)cc1OC | cell growth or viability, MTT | 72 h | > 50
Clc1ccc2ccc3[n+](c2c1)[Ir-3]12([c]4ccccc4-3)([c]3ccccc3-c3ccc4ccc(Cl)cc4[n+]31)[n+]1ccccc1-c1cccc[n+]12.F[P-](F)(F)(F)(F)F | cell growth, MTT | 72 h | 2.2 ± 0.19
COc1ccc(CC[C@H]2OC(=O)[C@@H]3CCCCN3C(=O)C(=O)C(C)(C)COC(=O)/C=C/CCN(C)C(=O)[C@H](CC(C)C)N(C)C(=O)[C@@H]3CCCN3C(=O)[C@H](Cc3ccccc3)N(C)C(=O)[C@H](c3ccccc3)NC(=O)CCC(=O)Nc3cccc2c3)cc1OC | thymidine uptake, inhibitor | together with: [3H]-thymidine | 0.005
COc1cc2c(cc1-c1coc3c(CC=C(C)C)c(OC)c(OC)cc3c1=O)OCO2 | cell growth or viability, MTT | 72 h | > 50
COc1ccc2cc3[n+](cc2c1OCc1cn(Cc2cccc(Cl)c2)nn1)CCc1cc2c(cc1-3)OCO2 | cell growth or viability, MTT |  | 48.2
COC(=O)CNc1cc(C[S+]([O-])c2ccc3ccccc3c2)ccc1OC (stereo not drawn) | cell growth or viability, MTS | 48 h | 11.4
COc1ccc2cc3[n+](cc2c1OCc1cn(Cc2ccccc2Cl)nn1)CCc1cc2c(cc1-3)OCO2 | cell growth or viability, MTT |  | 33.1
CC12CCC3c4ccc(OCCCOc5no[n+]([O-])c5S(=O)(=O)c5ccccc5)c(Br)c4CCC3C1CCC2O (stereo not drawn) | cell growth or viability, MTT | 48 h | 0.056
COc1ccc2cc3[n+](cc2c1OCc1cn(Cc2cccc(Br)c2)nn1)CCc1cc2c(cc1-3)OCO2 | cell growth or viability, MTT |  | 25.8
[NH2][Pt]1([NH2])([Cl])([O]C(=O)C(Cl)Cl)[O]C(=O)C2(CC(=O)C2)C(=O)[O]1 | cell growth or viability, MTT |  | 59.1
COc1ccc2cc3[n+](cc2c1OCc1cn(Cc2ccccc2)nn1)CCc1cc2c(cc1-3)OCO2 | cell growth or viability, MTT |  | 71.9
CC(=O)Nc1ccc(OC(=O)CCC(=O)[O][Pt-2]23([O]C(=O)CCC(=O)Oc4ccc(NC(C)=O)cc4)([NH2+][C@@H]4CCCC[C@H]4[NH2+]2)[O]C(=O)C(=O)[O]3)cc1 | cell growth or viability, MTT | 48 h | > 100
CC12CCC3c4ccc(OCCCOc5no[n+]([O-])c5S(=O)(=O)c5ccccc5)cc4CCC3C1CCC2O (stereo not drawn) | cell growth or viability, MTT | 48 h | 0.418
COc1ccc(Cn2cc(COc3c(OC)ccc4cc5[n+](cc34)CCc3cc4c(cc3-5)OCO4)nn2)cc1 | cell growth or viability, MTT |  | 71.2
Oc1ccc2c(c1)OCc1c-2oc2cc3c(cc12)OCO3 | cell growth or viability, MTT | 72 h | > 50
